# Published values pooled from the literature.
# Every numbered part comes from another study and shows a few of its results, in no order. Changes are numbered by the printed parent chain.

# Block 1
# Target: RNA binding protein fox-1 homolog 2, RRM domain, GST-SBP tag (RBFOX2, Homo sapiens, UniProt O43251-10, residues 100-194)
# Technique: RNA Bind-n-Seq
# Molecule type: RNA
# Sample: in vitro
# Concentration: 365 nM
# Notes: natural RNA segment, single round, ends assumed
# Baseline: no-protein control
# Reading: higher = stronger binding
# All sequences stand within: GGGAGUUCUACAGUCCGACGAUC … UGGAAUUCUCGGGUGCCAA
# Residues (chain): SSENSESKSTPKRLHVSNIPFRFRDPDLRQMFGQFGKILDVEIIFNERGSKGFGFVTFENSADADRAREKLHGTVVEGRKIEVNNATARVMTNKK
Oligonucleotide,RBNS enrichment (R)
CUGGGUCAAGACUGGUCCAGCUUAGAGUGCAUGCUCUGUUCAUACUCAGCCUAGCUCACAGUGACUUGUGCUUCACUGUCAGGAUGCUCUGUAAAGUUCCUCAUCCCUGU,0.695
CAGCCCGGAGCUGGGUGCUGGGGAAGGCGGGGCGCGUAGCCUCCCGCCGCCCUGCGGUUGGGCCGGUGGAGGCCCAGGCGUUGCUAGGAUUGCAUCAGUUUUCCUGUUUG,0.42
AAGACAAAUUGAUCAGUGCUUCCCACUCCAAGUCAAGCUUUAUGCAGGAAUGCUUUUCCAUCAGGGAAUAAAUACUUAGAAGCGCUUACAAGGUGCCAGGCACCUCCUUU,1.03
CAGCCCCCAUACUGACAGACGGACAGACAGACAUGCAAACACCAGACUGAAGCACAUGUAAUAUAGACCGUGUAUGUUUACAAUGUUGUGUAUAAAUGGGACAACUCCUC,0.419
GGGUUUUAGGCUUGCCUGGGAAGCUACAGUCAAGGUGCAUUCUGGGAGCUACUCAUCCCCAGCAGUUAGCGCUCCGCCCCGGUUGACUCUUGAUGGCUUUGCGGAGCCCC,0.233
GAAGUGUAGAUCAUUGUAUUCAGAGAUUGUAAAUGAAAAAAAUAUAGAAACUAUUUAGUUUUGGUAGAUUUUUUUUCUGACAAUGUGACCAGACUGAAUUUCCUCAUAAA,0.513
UGCCCCCGAUAGCAUAGUGUGUGCCAACCGGUACACCUGACUCAGCAUUAGGAUCCUAUAACCAUGCCUGUCCCUGCUCUGUGUUUUAGGGAAGUGACAUAAAGUGAGGU,0.29
AGCCCCCAGGCCAGGUGAGGUCCACCGGCCCCUGGCAGCACAGCCCAGGGCCUGCAUGGGGGCACCGGGCUCCAUGCCUCUGGAGGCCUCUGGCCCUCGGUGGCUGCACA,0.661
AAGUGACUGGGUGUGCCAAAAAUGCCCAGGGUUCUGCCCUCAAUACUAUAUUUGAUGGGGCCAAGAGGGUCCAAACCCUGCUAACAUACCACUUUAUUCAACUCCUUUAC,0.423

# Block 2
# Target: ABI1, truncated, D143A, DHFR fusion (Arabidopsis thaliana)
# Technique: DHFR PCA, deep sequencing
# Sample: yeast
# Notes: methotrexate growth selection, single substitutions
# Added: (+)-ABA 0.39 µM
# Baseline: wild-type fitted maximum
# Reading: higher = stronger binding
# Starting sequence: PYL1, truncated, DHFR fusion (Arabidopsis thaliana); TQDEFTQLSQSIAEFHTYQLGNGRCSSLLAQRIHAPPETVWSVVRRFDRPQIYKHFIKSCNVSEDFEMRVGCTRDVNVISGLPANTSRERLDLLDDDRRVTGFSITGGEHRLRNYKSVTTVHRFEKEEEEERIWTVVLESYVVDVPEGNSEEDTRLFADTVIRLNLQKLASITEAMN
Substitution,relative binding score [%]
Q10N,40.3
V118H,17.5
S63W,-4.78
S26V,0.662
R32G,4.32
P50Y,-12.1

# Block 3
# Target: CCNE2, cyclin fold, Cln2 fusion (human)
# Technique: yeast growth competition, sequencing
# Sample: yeast
# Notes: weak parent motif
# Baseline: not given
# Reading: higher = stronger binding
# Starting sequence: RB1 docking peptide (human); PKPLKKLRFDIEG; partner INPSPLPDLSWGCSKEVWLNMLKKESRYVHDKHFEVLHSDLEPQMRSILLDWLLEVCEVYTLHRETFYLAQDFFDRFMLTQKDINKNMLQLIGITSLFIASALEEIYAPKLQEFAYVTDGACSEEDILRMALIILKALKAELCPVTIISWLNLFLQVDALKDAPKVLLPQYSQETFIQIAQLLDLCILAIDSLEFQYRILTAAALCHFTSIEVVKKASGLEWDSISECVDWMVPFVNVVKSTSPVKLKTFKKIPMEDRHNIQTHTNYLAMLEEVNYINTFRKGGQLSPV
Substitution,normalised enrichment score
PKPHKKLRFDIEG [L4H],0.314
PKPLKKLRFHIEG [D10H],1.13
PKLLKKLRFDIEG [P3L],0.692
PKPLKKLRFCIEG [D10C],-0.233
PKPLIKLRFDIEG [K5I],0.363
PKPLKKDRFDIEG [L7D],-0.724
PKPLKKLRFDIWG [E12W],0.649
PKSLKKLRFDIEG [P3S],1.84
PKPLKKLRFDIHG [E12H],0.427
PKPLKKLRFDFEG [I11F],1.04
PKPGKKLRFDIEG [L4G],0.497
PKPLKDLRFDIEG [K6D],0.135

# Further values, each from its own experiment
Molecule,target,test,test system,conditions,how to read,measurement,value
"PhoQ, residues 284 288 289 292 302 303 SSTMSV","PhoP, residues 12 14 15 18 19 STWGI (Escherichia coli, UniProt P23836)","Sort-seq, refers to: YFP reporter",E. coli,"PhoQ-PhoP variant library, added: 10 µM Mg2+","baseline: high Mg2+ state, higher = stronger signaling",fold induction,1.21

# Some of these lines once more (block 2):
Substitution,relative binding score [%]
V118H,17.5
S63W,-4.78
S26V,0.662
R32G,4.32
